Assay results from different studies.
Every numbered part comes from another study and shows a few of its results, in no order. Positions count from the first letter of the parent shown.

Series 1 — technique: RNA Bind-n-Seq; molecule type: RNA; sample: in vitro; concentration: 365 nM; baseline: no-protein control; direction: higher = stronger binding; quantity: RBNS enrichment (R)
Target: RNA binding protein fox-1 homolog 2, RRM domain, GST-SBP tag (RBFOX2, Homo sapiens, UniProt O43251-10, residues 100-194)
Setting: natural RNA segment, single round, ends assumed
Target sequence (chain): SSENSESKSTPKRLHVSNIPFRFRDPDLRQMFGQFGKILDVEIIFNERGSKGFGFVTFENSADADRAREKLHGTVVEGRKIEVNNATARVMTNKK
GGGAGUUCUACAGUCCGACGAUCUAAGUAACUGAUAACUGAGAUUCGGGACCAUGUCUUGUUUGCCAUUGUGCCCUUGGAAUUUAAUACAAGUGCCUAACCCACAGUAGGGUUGAUUGAUUCACUGAUUAGUUUGGAAUUCUCGGGUGCCAA: 0.741
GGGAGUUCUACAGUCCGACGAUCGAGAAAGGAGACAGUAAGGUAUUUUGCCUGCCUUGUGAUGCCCUCCCCUGACCACCCUACCUUUUUGCAUCAAACACUGGGAAUGCUUCCUCAGUCCCUGCUCCAAACUAUGGAAUUCUCGGGUGCCAA: 2.93
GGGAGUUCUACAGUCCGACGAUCAGCUUGAAUGGGCUGUCGGGGGACACUGGAAGGGAGUAAGCAGCUUUUUGAAAAUGUUAAUACAUUACUCUGCUAAUAUGCUGACCUGCACUAAUGCACCCCUGUGAGGGUGGAAUUCUCGGGUGCCAA: 0.271
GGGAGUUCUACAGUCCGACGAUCCAUCAUCAAGAACAACCUGAAGGACUGCGGCCUCUUCUGGGGGCAGCGGGGCCUGGCGGGAUGGGCCACCGCCGACUUUGUACCCCCCAACCCCUGAGGAAGAUGGGGGCUGGAAUUCUCGGGUGCCAA: 0.26
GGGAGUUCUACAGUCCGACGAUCCAAUUGUGGCACUUGGGGCACCUUGCUCCUCCUUCUGCUGCUGCCCCCACCUCUGCUGCCUCCCUCUGCUGUCACCUUGCUCAGCCAUCCCGUCUUCUCCAACACCACCUUGGAAUUCUCGGGUGCCAA: 0.52
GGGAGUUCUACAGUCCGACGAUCAGGAGAGAUGCCUCAGGCUUCAGACCUUACCUGGGUUUUCAGGGCAAACAUAAAUGUAAAUACACUGAUUUAUUCUGUUACUAGAUCAGGUUUUAGGGUCCUGCAAAAGGUGGAAUUCUCGGGUGCCAA: 0.346
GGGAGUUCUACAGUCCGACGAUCGAUCCUUGCCCAGCGGUGGGAGCUGGGAGACAGUGCAUGGGAGGGGCUCCCUGGCAUGCCUGCCCUAGAAUUGUUAUGUUGGGCAUCACAGUCAUGAACUUUUGUUUUUCUGGAAUUCUCGGGUGCCAA: 3.65
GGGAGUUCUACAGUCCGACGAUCCUCGCCACAGUUAUCAGCUGCCAUUGCUCCCUGUCUGUUUCCCCACUCUCUUAUUUGUGCAUUCGGUUUGGUUUCUGUAGUUUUAAUUUUUAAUAAAGUUGAAUAAAAUAUGGAAUUCUCGGGUGCCAA: 1.11
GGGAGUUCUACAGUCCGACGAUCGCUAGGAGAGCCUGGGCUUCCUCCUUGCGGUGGGGCCAGCCUGCAAAGGGCCACUGACCUGGCAAGCAUUUACUUCUACUUCACCAAAGAUGCCCAGAGUGAUGGGUCAGUGGAAUUCUCGGGUGCCAA: 0.673
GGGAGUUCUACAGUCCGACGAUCCUGGAGCUCUGCUUGCCUGUCCCCACCUCGCUGGAAACCAUCUCGCCAUUAGCGCAACUGAUUUCCCACACUCUGCUCUGGCCUGAACCCUAAUCUUCGCAGCCGCUUGGUGGAAUUCUCGGGUGCCAA: 1.46
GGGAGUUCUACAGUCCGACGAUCUAGAGACAGGGUUUCACCAUGUUGGCCAGGAUGGUCUUGAUCUCUUGACCUCGUGAUCCGCCCACCUUGGCCUCCCAAAGUGCUGGAUUACAGGUGUGAGCCACCGUGCCUGGAAUUCUCGGGUGCCAA: 0.331
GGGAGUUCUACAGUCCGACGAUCCAGGGUUAGCGCCCAUGAAAGGGGACCGAGUGUAUGACAAUCUGCGUUGAUCAUGGACUACUAAAAUGCCUUCACACAGGAGGCUUUGACUUGCACAAUUCUUUGGGAAGUGGAAUUCUCGGGUGCCAA: 0.373

Series 2 — technique: protein binding microarray; molecule type: double-stranded DNA, one strand shown; sample: in vitro; concentration: not given; baseline: not given; direction: higher = stronger binding; quantity: E-score
Target: Histone acetyltransferase KAT6A, both winged helices, GST fusion (KAT6A, Homo sapiens, UniProt Q92794, residues 1-181)
Setting: 8-mer, flanks averaged, mean of 2 arrays, mostly near background
Residues (chain): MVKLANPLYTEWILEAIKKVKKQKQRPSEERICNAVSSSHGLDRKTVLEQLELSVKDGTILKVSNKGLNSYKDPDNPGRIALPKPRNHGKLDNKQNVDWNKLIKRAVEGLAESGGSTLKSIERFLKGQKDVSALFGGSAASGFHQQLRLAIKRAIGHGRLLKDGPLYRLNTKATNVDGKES
AGTATTTC: -0.0475
GTGAAGCA: 0.0131
AGGTTAGC: -0.0467
AAGCTCAA: -0.206
CCTCTCTA: -0.157
CTCTACCA: -0.184
GGATATGA: 0.0153
AGATCTGC: -0.198
AGCTGAAA: 0.0034
CCGGGAGG: 0.114
GCCAACGC: 0.204
AGTTTCAA: -0.121
ACTCTCCC: -0.141
GAAGCGGC: 0.275
GTAGCTGA: -0.0339
CATGAGAC: -0.0235
CAAAGCAA: -0.0621
AAGTAACA: -0.143
CAGAATCG: 0.103
AGCTAAGG: -0.195
CCCGGTCA: 0.095
AACTACTC: 0.00013
ATGAGACC: -0.0297

Series 3 — technique: aptamer microarray, sandwich; molecule type: DNA with 2'F-ANA; sample: in vitro; concentration: 200 nM; with: Cy3 exosite-II aptamer, 400 nM; direction: higher = stronger binding; quantity: mean fluorescence intensity; sequence: GGTTGGTGTGGTTGG
Target: Prothrombin, mature alpha-thrombin (F2, Homo sapiens, UniProt P00734)
Setting: whole 15-mer aptamer, many near background
2'F-ANA at 1 4 5 7 10 12 13 14 15: 48.5 a.u.
2'F-ANA at 1 3 5 8 11 15: 57.5 a.u.
2'F-ANA at 2 3 5 6 8 10 13 14: 51.4 a.u.
2'F-ANA at 4 5 10 11 14: 43.8 a.u.
2'F-ANA at 1 6 11 12 13 15: 244 a.u.
2'F-ANA at 6 9 12: 714 a.u.
2'F-ANA at 1 2 3 5 6 10 12 14 15: 46.8 a.u.
2'F-ANA at 2 5 7 8 12 13 15: 122 a.u.
2'F-ANA at 2 3 4 15: 717 a.u.
2'F-ANA at 2 5 8 9 11 13 14 15: 45.1 a.u.
2'F-ANA at 2 8 9 13 14: 130 a.u.
2'F-ANA at 4 11 12 13 15: 413 a.u.
2'F-ANA at 2 3 5 7 9 10 11: 58.9 a.u.
2'F-ANA at 3 4 5 7 8 11 15: 85 a.u.
2'F-ANA at 1 2 5 6 14 15: 47 a.u.
2'F-ANA at 1 3 4 5 6 7 9 12 13: 69.9 a.u.
2'F-ANA at 1 2 8 9 10 14: 145 a.u.
2'F-ANA at 1 3 4 5 9 11 14 15: 42.9 a.u.
2'F-ANA at 1 2 5 7 11 13: 49.9 a.u.

Series 4 — target: CCND1, cyclin fold, Cln2 fusion (human); technique: yeast growth competition, sequencing; sample: yeast; setting: weak parent motif; baseline: not given; direction: higher = stronger binding; quantity: normalised enrichment score
Starting sequence: CDC6 docking peptide (human); TLKGRRLVFDNQL; partner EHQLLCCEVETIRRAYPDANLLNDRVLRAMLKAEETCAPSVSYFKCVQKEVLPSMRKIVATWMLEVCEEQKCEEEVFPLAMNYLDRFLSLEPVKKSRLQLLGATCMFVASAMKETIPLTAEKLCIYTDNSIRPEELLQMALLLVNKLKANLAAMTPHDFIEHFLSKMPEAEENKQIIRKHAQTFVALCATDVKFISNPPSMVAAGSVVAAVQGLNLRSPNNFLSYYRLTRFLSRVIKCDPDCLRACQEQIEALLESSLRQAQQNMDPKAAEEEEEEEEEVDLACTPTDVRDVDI
Q12M: 0.576
N11G: 0.376
G4R: -0.0155
R5S: 0.976
T1R: -0.404
L2F: 0.452
V8T: 0.509
N11H: 0.134
R5V: 0.637
R5C: 0.634
R5A: 0.653
L13K: -0.555
L2V: 0.817
D10N: 0.601
K3D: 0.183
R6G: -0.0581
R5N: 0.793
R5M: 0.0876

For quick reference, copied from above (series 1):
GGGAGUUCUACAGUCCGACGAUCCAUCAUCAAGAACAACCUGAAGGACUGCGGCCUCUUCUGGGGGCAGCGGGGCCUGGCGGGAUGGGCCACCGCCGACUUUGUACCCCCCAACCCCUGAGGAAGAUGGGGGCUGGAAUUCUCGGGUGCCAA: 0.26
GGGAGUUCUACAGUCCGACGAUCCAAUUGUGGCACUUGGGGCACCUUGCUCCUCCUUCUGCUGCUGCCCCCACCUCUGCUGCCUCCCUCUGCUGUCACCUUGCUCAGCCAUCCCGUCUUCUCCAACACCACCUUGGAAUUCUCGGGUGCCAA: 0.52
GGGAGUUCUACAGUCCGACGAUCAGGAGAGAUGCCUCAGGCUUCAGACCUUACCUGGGUUUUCAGGGCAAACAUAAAUGUAAAUACACUGAUUUAUUCUGUUACUAGAUCAGGUUUUAGGGUCCUGCAAAAGGUGGAAUUCUCGGGUGCCAA: 0.346
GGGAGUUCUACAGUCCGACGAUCGAUCCUUGCCCAGCGGUGGGAGCUGGGAGACAGUGCAUGGGAGGGGCUCCCUGGCAUGCCUGCCCUAGAAUUGUUAUGUUGGGCAUCACAGUCAUGAACUUUUGUUUUUCUGGAAUUCUCGGGUGCCAA: 3.65
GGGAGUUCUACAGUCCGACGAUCCUCGCCACAGUUAUCAGCUGCCAUUGCUCCCUGUCUGUUUCCCCACUCUCUUAUUUGUGCAUUCGGUUUGGUUUCUGUAGUUUUAAUUUUUAAUAAAGUUGAAUAAAAUAUGGAAUUCUCGGGUGCCAA: 1.11
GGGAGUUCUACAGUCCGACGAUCGCUAGGAGAGCCUGGGCUUCCUCCUUGCGGUGGGGCCAGCCUGCAAAGGGCCACUGACCUGGCAAGCAUUUACUUCUACUUCACCAAAGAUGCCCAGAGUGAUGGGUCAGUGGAAUUCUCGGGUGCCAA: 0.673
